Results from different studies.
Protocols differ between the studies behind these lines. ± marks the error that the study gave.
Tumor necrosis factor receptor superfamily member 9/Nectin-4: Tumor necrosis factor receptor superfamily member 9/Nectin-4 (Homo sapiens, UniProt Q07011+Q96NY8)
Sequence of UniProt Q07011 (whole entry, looked up): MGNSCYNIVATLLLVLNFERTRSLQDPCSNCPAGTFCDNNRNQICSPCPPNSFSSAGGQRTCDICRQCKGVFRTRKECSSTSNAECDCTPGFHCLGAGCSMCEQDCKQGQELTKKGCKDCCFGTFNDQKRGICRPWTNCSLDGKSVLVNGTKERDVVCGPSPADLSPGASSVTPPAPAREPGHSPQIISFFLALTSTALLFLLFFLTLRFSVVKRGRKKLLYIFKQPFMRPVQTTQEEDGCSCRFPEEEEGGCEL
Sequence of UniProt Q96NY8 (whole entry, looked up): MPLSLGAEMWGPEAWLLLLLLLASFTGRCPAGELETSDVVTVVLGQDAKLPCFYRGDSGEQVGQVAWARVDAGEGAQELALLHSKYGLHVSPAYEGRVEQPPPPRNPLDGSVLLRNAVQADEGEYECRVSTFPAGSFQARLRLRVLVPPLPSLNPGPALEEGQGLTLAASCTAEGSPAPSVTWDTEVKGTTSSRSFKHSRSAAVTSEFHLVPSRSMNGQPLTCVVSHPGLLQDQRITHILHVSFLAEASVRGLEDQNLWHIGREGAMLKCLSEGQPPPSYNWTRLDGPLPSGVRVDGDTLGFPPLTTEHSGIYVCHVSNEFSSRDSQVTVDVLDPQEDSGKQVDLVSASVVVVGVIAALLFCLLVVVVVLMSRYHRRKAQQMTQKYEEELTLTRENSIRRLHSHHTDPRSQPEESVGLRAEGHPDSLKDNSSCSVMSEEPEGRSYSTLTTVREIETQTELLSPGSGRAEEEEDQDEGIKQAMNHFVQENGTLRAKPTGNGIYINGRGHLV
Toll-like receptor 1/2: Toll-like receptor 1/2 (Homo sapiens, UniProt O60603+Q15399)
Sequence of UniProt Q15399 (whole entry, looked up): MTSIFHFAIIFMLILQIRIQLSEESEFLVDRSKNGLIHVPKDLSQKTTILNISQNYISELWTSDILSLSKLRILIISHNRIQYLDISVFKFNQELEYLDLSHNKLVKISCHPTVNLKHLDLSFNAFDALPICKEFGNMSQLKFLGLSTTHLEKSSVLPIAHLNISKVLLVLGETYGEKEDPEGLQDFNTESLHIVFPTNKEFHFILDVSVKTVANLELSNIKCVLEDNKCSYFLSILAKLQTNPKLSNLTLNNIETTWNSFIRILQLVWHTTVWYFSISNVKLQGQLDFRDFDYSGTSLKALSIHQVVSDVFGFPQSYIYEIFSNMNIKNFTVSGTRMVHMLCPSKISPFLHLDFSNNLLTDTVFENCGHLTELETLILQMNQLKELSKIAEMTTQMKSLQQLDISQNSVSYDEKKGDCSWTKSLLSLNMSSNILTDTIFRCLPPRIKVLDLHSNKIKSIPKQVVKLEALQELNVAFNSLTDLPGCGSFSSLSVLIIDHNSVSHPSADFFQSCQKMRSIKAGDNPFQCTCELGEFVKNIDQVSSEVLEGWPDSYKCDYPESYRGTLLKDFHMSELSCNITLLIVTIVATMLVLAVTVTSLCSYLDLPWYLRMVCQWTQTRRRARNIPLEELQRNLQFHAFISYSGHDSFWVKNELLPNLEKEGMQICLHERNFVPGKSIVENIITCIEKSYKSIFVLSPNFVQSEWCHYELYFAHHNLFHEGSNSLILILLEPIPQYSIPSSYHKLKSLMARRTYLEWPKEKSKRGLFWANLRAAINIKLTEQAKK
Sequence of UniProt O60603 (whole entry, looked up): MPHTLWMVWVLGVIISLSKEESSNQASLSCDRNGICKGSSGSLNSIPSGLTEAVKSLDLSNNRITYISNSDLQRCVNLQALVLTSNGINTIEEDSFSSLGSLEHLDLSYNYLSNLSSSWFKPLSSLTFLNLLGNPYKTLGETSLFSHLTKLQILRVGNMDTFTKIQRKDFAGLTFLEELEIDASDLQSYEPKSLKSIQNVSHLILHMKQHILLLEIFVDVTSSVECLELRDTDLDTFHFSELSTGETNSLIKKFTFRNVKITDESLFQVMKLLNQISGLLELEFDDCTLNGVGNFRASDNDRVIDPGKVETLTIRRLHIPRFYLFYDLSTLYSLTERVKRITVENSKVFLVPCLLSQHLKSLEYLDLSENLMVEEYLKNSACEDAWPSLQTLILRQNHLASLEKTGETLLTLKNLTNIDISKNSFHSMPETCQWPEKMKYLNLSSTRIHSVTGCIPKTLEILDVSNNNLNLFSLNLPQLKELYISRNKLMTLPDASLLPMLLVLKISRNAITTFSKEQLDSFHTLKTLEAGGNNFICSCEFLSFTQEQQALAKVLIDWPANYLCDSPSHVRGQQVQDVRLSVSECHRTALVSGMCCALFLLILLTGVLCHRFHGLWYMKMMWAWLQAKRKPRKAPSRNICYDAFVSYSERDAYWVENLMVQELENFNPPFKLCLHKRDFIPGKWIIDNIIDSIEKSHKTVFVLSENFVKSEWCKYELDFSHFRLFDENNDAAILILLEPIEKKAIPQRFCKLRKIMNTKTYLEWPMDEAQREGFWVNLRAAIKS
OR5K1 A2T/I280V/T15M/V39I/Y193C: OR5K1 (Homo sapiens, UniProt Q8NHB7, A2T/I280V/T15M/V39I/Y193C)
Sequence of UniProt Q8NHB7 (whole entry, unmodified, looked up): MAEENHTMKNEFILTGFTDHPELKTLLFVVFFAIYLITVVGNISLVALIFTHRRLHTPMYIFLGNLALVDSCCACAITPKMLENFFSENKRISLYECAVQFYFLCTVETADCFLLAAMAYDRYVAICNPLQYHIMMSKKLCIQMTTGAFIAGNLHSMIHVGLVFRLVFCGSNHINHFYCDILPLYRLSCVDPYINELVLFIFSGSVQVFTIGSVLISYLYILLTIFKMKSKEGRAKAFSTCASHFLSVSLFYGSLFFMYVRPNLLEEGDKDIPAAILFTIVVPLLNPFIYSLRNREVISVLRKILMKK
Sequence of UniProt Q8TDS7 (whole entry, looked up): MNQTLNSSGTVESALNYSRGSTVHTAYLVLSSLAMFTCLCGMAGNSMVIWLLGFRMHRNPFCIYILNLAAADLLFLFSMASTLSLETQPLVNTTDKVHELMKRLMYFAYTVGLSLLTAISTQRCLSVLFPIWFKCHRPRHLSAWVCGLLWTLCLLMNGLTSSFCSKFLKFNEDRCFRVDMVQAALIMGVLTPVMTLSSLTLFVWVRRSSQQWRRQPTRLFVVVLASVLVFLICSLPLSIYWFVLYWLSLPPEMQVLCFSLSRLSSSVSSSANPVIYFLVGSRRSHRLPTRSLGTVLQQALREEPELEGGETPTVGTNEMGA
Sequence of UniProt O14842 (whole entry, looked up): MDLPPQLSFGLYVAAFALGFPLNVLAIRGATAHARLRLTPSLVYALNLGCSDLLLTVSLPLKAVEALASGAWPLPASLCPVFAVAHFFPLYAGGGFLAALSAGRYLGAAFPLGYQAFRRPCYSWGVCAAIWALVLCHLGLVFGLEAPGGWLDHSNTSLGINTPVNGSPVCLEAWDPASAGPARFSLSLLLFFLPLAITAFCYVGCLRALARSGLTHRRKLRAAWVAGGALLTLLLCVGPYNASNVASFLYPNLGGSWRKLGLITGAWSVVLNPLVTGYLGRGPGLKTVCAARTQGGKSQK
Sequence of UniProt P35348 (whole entry, looked up): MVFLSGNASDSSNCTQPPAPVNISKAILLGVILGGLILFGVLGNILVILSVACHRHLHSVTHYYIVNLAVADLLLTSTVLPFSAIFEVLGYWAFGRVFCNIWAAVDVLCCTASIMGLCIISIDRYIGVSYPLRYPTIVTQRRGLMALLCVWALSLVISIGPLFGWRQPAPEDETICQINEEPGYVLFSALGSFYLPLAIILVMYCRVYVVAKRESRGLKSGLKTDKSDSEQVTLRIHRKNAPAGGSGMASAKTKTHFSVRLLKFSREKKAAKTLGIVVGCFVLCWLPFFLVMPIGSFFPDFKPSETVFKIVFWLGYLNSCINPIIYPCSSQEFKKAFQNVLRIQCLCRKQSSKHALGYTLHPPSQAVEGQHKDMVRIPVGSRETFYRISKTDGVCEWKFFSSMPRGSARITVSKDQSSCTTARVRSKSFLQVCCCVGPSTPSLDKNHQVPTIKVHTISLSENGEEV
Sequence of UniProt Q6DWJ6 (whole entry, looked up): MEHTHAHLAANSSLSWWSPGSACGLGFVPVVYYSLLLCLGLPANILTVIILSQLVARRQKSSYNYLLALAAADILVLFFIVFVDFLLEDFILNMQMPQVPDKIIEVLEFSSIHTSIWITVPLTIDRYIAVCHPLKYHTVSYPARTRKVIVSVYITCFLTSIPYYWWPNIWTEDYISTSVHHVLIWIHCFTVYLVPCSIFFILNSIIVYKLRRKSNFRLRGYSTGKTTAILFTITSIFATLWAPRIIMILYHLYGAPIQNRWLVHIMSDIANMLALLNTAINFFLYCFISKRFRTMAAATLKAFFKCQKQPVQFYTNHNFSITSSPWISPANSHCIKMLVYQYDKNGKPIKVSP
Sequence of UniProt Q96LB2 (whole entry, looked up): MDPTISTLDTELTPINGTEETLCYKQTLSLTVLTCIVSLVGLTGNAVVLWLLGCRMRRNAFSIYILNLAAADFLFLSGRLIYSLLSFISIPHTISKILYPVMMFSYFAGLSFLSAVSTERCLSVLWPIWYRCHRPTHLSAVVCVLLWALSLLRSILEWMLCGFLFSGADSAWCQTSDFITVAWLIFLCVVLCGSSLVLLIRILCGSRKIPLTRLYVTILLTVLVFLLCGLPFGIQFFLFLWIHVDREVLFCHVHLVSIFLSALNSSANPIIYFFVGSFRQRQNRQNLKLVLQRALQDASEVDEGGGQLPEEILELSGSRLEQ
Sequence of UniProt P34995 (whole entry, unmodified, looked up): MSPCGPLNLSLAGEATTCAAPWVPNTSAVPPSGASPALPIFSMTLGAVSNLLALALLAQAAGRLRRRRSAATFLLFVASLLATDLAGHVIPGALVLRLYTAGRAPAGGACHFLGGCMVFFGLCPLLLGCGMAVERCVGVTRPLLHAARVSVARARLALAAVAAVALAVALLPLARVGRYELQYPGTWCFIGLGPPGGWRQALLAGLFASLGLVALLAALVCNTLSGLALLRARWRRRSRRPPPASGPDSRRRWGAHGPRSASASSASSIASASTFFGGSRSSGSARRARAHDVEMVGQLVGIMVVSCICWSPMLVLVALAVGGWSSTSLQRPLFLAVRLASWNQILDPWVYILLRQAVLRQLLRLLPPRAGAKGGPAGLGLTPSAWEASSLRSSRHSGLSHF

| Structure (SMILES) | target | test | system | conditions | EC50 |
| --- | --- | --- | --- | --- | --- |
| CCCC[C@@H]1NC(=O)[C@H](Cc2ccc(O)cc2)NC(=O)[C@@H]2CCCN2C(=O)[C@H](CC(=O)O)NC(=O)[C@H](C)NC(=O)[C@H](Cc2ccccc2)NC(=O)[C@@H]2CSCCC(=O)N3CN(CN(C3)C(=O)CCSC[C@@H](C(=O)N[C@@H](CNC(=O)CCc3cn(CCOCCOCCOCCOCCOCCOCCOCCOCCOCCOCCOCCOCCOCCOCCOCCOCCOCCOCCOCCOCCOCCOCCOCCNC(=O)N[C@H]4CSCCC(=O)N5CN6CN(C5)C(=O)CCSC[C@H](NC(=O)[C@@H](CC(=O)O)NC(=O)[C@H](Cc5cccc7ccccc57)NC(=O)[C@@H]5CCCN5C4=O)C(=O)N[C@@H](CCSC)C(=O)N[C@@H](CCCCNC(=N)N)C(=O)N[C@@H](CC(=O)O)C(=O)N[C@@H](Cc4c[nH]c5ccccc45)C(=O)N[C@@H](CO)C(=O)N[C@@H]([C@@H](C)O)C(=O)N4CCC[C@H]4C(=O)N4C[C@H](O)C[C@H]4C(=O)N[C@@H](Cc4c[nH]c5ccccc45)C(=O)N[C@H](C(N)=O)CSCCC6=O)nn3)C(N)=O)NC1=O)C(=O)CCSC[C@H](NC(=O)[C@H](C)NC(C)=O)C(=O)N[C@@H]([C@@H](C)CC)C(=O)N[C@@H](CCC(=O)O)C(=O)N[C@@H](CCC(=O)O)C(=O)NCC(=O)N[C@@H](CCC(N)=O)C(=O)N[C@@H](Cc1ccc(O)cc1)C(=O)N2 | Tumor necrosis factor receptor superfamily member 9/Nectin-4 | reporter gene, agonist | HT-1376 coculture with reporter cells | – | 0.00525 µM |
| COc1nccnc1C(C)C | uncharacterized protein (Vulpes vulpes, UniProt A0A3Q7SVK8) | cAMP, agonist | HEK293 transfected with uncharacterized protein | – | 251 ± 17.4 µM |
| CNc1ccc([N+](=O)[O-])cc1-n1cnc(-c2ccc(C)cc2)c1 | Toll-like receptor 1/2 | reporter gene, agonist | HEK-Blue hTLR2 | 24 h | > 100 µM |
| CCCC[C@@H]1NC(=O)[C@H](Cc2ccc(O)cc2)NC(=O)[C@@H]2CCCN2C(=O)[C@H](CC(=O)O)NC(=O)[C@H](C)NC(=O)[C@H](Cc2ccccc2)NC(=O)[C@@H]2CSCCC(=O)N3CN(CN(C3)C(=O)CCSC[C@@H](C(=O)N[C@@H](C)C(N)=O)NC1=O)C(=O)CCSC[C@H](NC(C)=O)C(=O)N[C@@H](CC(C)(C)C)C(=O)N1CCC[C@H]1C(=O)N[C@@H](CCC(=O)O)C(=O)N[C@H](CCCCNC(=O)CCc1cn(CC(=O)N[C@H]3CSCCC(=O)N4CN5CN(C4)C(=O)CCSC[C@H](NC(=O)[C@@H](CC(=O)O)NC(=O)[C@H](Cc4cccc6ccccc46)NC(=O)[C@@H]4CCCN4C3=O)C(=O)N[C@@H](CCSC)C(=O)N[C@@H](CCCCNC(=N)N)C(=O)N[C@@H](CC(=O)O)C(=O)N[C@@H](Cc3c[nH]c4ccccc34)C(=O)N[C@@H](CO)C(=O)N[C@@H]([C@@H](C)O)C(=O)N3CCC[C@H]3C(=O)N3C[C@H](O)C[C@H]3C(=O)N[C@@H](Cc3c[nH]c4ccccc34)C(=O)N[C@H](C(N)=O)CSCCC5=O)nn1)C(=O)N1CCC[C@H]1C(=O)N[C@@H](Cc1ccc(O)cc1)C(=O)N2 | Tumor necrosis factor receptor superfamily member 9/Nectin-4 | reporter gene, agonist | HT-1376 coculture with reporter cells | – | 0.00114 µM |
| CCCCC[C@H](O)/C=C/[C@H]1[C@H](O)CC(=O)[C@@H]1C/C=C\CCCC(=O)O | PTGER1 (Homo sapiens, UniProt P34995, H88A) | IP1 accumulation, agonist | AD293 | EP1 H88A mutant | 0.787 µM |
| NCCCC(=O)O | MRGPRD (Homo sapiens, UniProt Q8TDS7) | miniGq recruitment, agonist, BRET | HEK293T | wild type | 112 µM |
| Nc1nc2c(ncn2[C@@H]2O[C@@H]3COP(=O)(O)O[C@H]3[C@H]2O)c(=O)[nH]1 | Cone cGMP-gated channel (Morone saxatilis, UniProt Q3I0N1+Q3I0N2) | channel current, agonist, suction electrode | Morone saxatilis cone outer segments | with: 20 µM Ca2+ | 331 µM |
| CCCC[C@@H]1NC(=O)[C@H](Cc2ccc(O)cc2)NC(=O)[C@@H]2CCCN2C(=O)[C@H](CC(=O)O)NC(=O)[C@H](C)NC(=O)[C@H](Cc2ccccc2)NC(=O)[C@@H]2CSCCC(=O)N3CN(CN(C3)C(=O)CCSC[C@@H](C(=O)N[C@@H](CNC(=O)CCc3cn(CCOCCOCCOCCOCCOCCOCCOCCOCCOCCOCCNC(=O)N[C@H]4CSCCC(=O)N5CN6CN(C5)C(=O)CCSC[C@H](NC(=O)[C@@H](CC(=O)O)NC(=O)[C@H](Cc5cccc7ccccc57)NC(=O)[C@@H]5CCCN5C4=O)C(=O)N[C@@H](CCSC)C(=O)N[C@@H](CCCCNC(=N)N)C(=O)N[C@@H](CC(=O)O)C(=O)N[C@@H](Cc4c[nH]c5ccccc45)C(=O)N[C@@H](CO)C(=O)N[C@@H]([C@@H](C)O)C(=O)N4CCC[C@H]4C(=O)N4C[C@H](O)C[C@H]4C(=O)N[C@@H](Cc4c[nH]c5ccccc45)C(=O)N[C@H](C(N)=O)CSCCC6=O)nn3)C(N)=O)NC1=O)C(=O)CCSC[C@H](NC(=O)[C@H](C)NC(C)=O)C(=O)N[C@@H]([C@@H](C)CC)C(=O)N[C@@H](CCC(=O)O)C(=O)N[C@@H](CCC(=O)O)C(=O)NCC(=O)N[C@@H](CCC(N)=O)C(=O)N[C@@H](Cc1ccc(O)cc1)C(=O)N2 | Tumor necrosis factor receptor superfamily member 9/Nectin-4 | reporter gene, agonist | HT-1376 coculture with reporter cells | – | 0.00312 µM |
| Cn1cc2c(C(=O)O)ccc(NS(=O)(=O)c3ccc(OCC4CCC4)c(Cl)c3)c2n1 | ADRA1A (Homo sapiens, UniProt P35348) | antagonist | – | – | > 10 µM |
| CNc1ccc(C(=O)O)cc1-n1cnc(-c2ccc(C(F)(F)F)cc2)c1 | Toll-like receptor 1/2 | reporter gene, agonist | HEK-Blue hTLR2 | 24 h | > 100 µM |
| O=C(O)CCc1ccc(NCc2cccc(Oc3ccccc3)c2)cc1 | FFAR1 (Homo sapiens, UniProt O14842) | agonist, cell-based | – | – | 2.53 µM |
| C[C@H](NC(=O)CNC(=O)c1cccc(Cl)c1)c1ccccc1 | GPR139 (Homo sapiens, UniProt Q6DWJ6) | calcium response, agonist, BRET | HEK293T/17, transfected | – | 0.0962 ± 0.0161 µM |
| CCc1nccnc1OC | OR5K1 A2T/I280V/T15M/V39I/Y193C | cAMP, agonist | HEK293 transfected with OR5K1 | – | 387 ± 75.8 µM |
| CCCC[C@@H]1NC(=O)[C@H](Cc2ccc(O)cc2)NC(=O)[C@@H]2CCCN2C(=O)[C@H](CC(=O)O)NC(=O)[C@H](C)NC(=O)[C@H](Cc2ccccc2)NC(=O)[C@@H]2CSCCC(=O)N3CN(CN(C3)C(=O)CCSC[C@@H](C(=O)N[C@@H](CNC(=O)CCOCCOCCOCCOCCOCCOCCOCCOCCOCCOCCOCCOCCn3cc(CCC(=O)NCCC(=O)N(C)CC(=O)N(C)CC(=O)N(C)CC(=O)N(C)CC(=O)N(C)CC(=O)N(C)CC(=O)N(C)CC(=O)N(C)CC(=O)N(C)CC(=O)N(C)CC(=O)N[C@H]4CSCCC(=O)N5CN6CN(C5)C(=O)CCSC[C@H](NC(=O)[C@@H](CC(=O)O)NC(=O)[C@H](Cc5cccc7ccccc57)NC(=O)[C@@H]5CCCN5C4=O)C(=O)N[C@@H](CCSC)C(=O)N[C@@H](CCCCNC(=N)N)C(=O)N[C@@H](CC(=O)O)C(=O)N[C@@H](Cc4c[nH]c5ccccc45)C(=O)N[C@@H](CO)C(=O)N[C@@H]([C@@H](C)O)C(=O)N4CCC[C@H]4C(=O)N4C[C@H](O)C[C@H]4C(=O)N[C@@H](Cc4c[nH]c5ccccc45)C(=O)N[C@H](C(N)=O)CSCCC6=O)nn3)C(N)=O)NC1=O)C(=O)CCSC[C@H](NC(C)=O)C(=O)N[C@@H](CC(C)(C)C)C(=O)N1CCC[C@H]1C(=O)N[C@@H](CCC(=O)O)C(=O)N[C@H](C)C(=O)N1CCC[C@H]1C(=O)N[C@@H](Cc1ccc(O)cc1)C(=O)N2 | Tumor necrosis factor receptor superfamily member 9/Nectin-4 | reporter gene, agonist | HT-1376 reporter coculture | – | 0.0011 µM |
| CC(C)(C)c1sc2ncnc(Oc3c(F)cccc3OC(F)(F)F)c2c1-c1ccc(Cl)cc1 | MRGPRX1 (Homo sapiens, UniProt Q96LB2) | positive allosteric modulator, FLIPR | HEK293 transfected with MRGPRX1 | with: EC20 agonist | 0.03 µM |
| Cc1cnc(C)c(C)n1 | OR5K1 A2T/I280V/T15M/V39I/Y193C | cAMP, agonist | HEK293 transfected with OR5K1 | – | 313 ± 70.3 µM |

Excerpt of the above:
| Structure (SMILES) | target | test | system | conditions | EC50 |
| --- | --- | --- | --- | --- | --- |
| COc1nccnc1C(C)C | uncharacterized protein (Vulpes vulpes, UniProt A0A3Q7SVK8) | cAMP, agonist | HEK293 transfected with uncharacterized protein | – | 251 ± 17.4 µM |
